Measured values gathered from unrelated publications.
Every numbered part comes from another study and shows a few of its results, in no order.

Study 1
Target: Histone acetyltransferase KAT6A, winged helix 2, GST fusion (KAT6A, Homo sapiens, UniProt Q92794, residues 85-181)
Technique: protein binding microarray
Form: double-stranded DNA, one strand shown
Medium: in vitro
Concentration: not given
Notes: 8-mer, flanks averaged, mean of 2 arrays, mostly near background
Relative to: not given
Direction: higher = stronger binding
Construct (chain): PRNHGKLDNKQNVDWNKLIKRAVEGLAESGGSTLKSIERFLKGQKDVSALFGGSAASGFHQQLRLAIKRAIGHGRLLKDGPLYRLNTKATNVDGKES
`ATTTGCTC` gave an E-score of 0.0218.
With `AAGTGTCC` the E-score was -0.101.
The E-score of `CATTCATC` is reported as -0.117.
With `CCCTCCAA` the E-score was -0.0856.
For `CTGCACCA`, the E-score was 0.027.
For `CGTGCTTC`, the E-score was 0.109.
The E-score of `CCCCACCG` is reported as 0.0913.
With `TATATGCA` the E-score was -0.213.
For `AAGTTCCA`, the E-score was -0.136.
`CGCCTCGA` gave an E-score of 0.252.
With `CTACCCCC` the E-score was -0.213.
`CGTTTAAA` gave an E-score of -0.0965.
The E-score of `GGGGTAAA` is reported as 0.0184.
The E-score of `GTGTGTGA` is reported as 0.0438.
With `ACGGCAAG` the E-score was 0.0707.
With `ATCGGCTA` the E-score was -0.0134.

Study 2
Target: RING finger protein unkempt homolog, zinc fingers 1-6, GST-SBP tag (UNK, Homo sapiens, UniProt Q9C0B0, residues 30-357)
UniProt Q9C0B0, sequence (30-357, looked up): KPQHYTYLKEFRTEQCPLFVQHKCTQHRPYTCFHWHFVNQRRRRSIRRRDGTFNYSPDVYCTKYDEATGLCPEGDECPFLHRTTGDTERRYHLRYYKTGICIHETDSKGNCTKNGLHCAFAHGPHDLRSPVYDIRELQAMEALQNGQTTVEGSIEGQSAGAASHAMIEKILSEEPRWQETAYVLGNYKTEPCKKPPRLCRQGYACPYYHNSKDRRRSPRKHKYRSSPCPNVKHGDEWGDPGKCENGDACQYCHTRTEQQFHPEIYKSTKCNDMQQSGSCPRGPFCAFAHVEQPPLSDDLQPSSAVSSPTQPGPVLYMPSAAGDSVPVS
Technique: RNA Bind-n-Seq
Form: RNA
Medium: in vitro
Concentration: not given
Notes: RNA with constant flanks, ends assumed
Relative to: input RNA pool
Direction: higher = stronger binding
All sequences stand within: GGGAGUUCUACAGUCCGACGAUC … CAACAGAGGAUUGAGCAUCA
The bound/input enrichment of `UGCCCAUCUUAGGUUGCGGUGACCGAGGUUUGUGAGGUUUUCCUUGUUUGAGAUAAAUUCCCGCAUUUGCUUUAUCAUAUACUCCUCCUGUGUGAGCGUGGAAAAGUUUAGAAUUGUAUG` is reported as 0.535 ratio.
With `GAGGCUUGCAAAGACAUCCUGCUGUUUAAGAAUCUGGAUCCGGAGCAGAUGUCUCAAGUAUCCGAUGCCAUGUUUGAAAAAUUGGUCAAAGAUGGGGAGCAUGUAAUUGAUCAAGGUGAC` the bound/input enrichment was 0.294 ratio.
`UCAAGCUGUGCUGUAAAUAUCAUUUAGACCUAUUGAGAAUUAACAGCAAAUCUGAGCUACUUCCGUGUUACCAACUAUUAGUCUGCUGACUGUUUCUAUAACAAAAUACCUGAGACAAUC` has a bound/input enrichment of 0.769 ratio.
For `UUAGCAUGCUGUAUGCCUCCCUCGUACAGUACAUCAGUUUACACUCUGAAGGCGUUCCCGAACCGUGUUGCCUAGUUUAAGGAAAGGGUAUUACAGUGUUCUUCACAACUUAAGAAUUUU`, the bound/input enrichment was 0.408 ratio.
The bound/input enrichment of `UUAGAUUUCAUUGGUAAUAAUGAGUCUCCACGUAAAAAAUUCCCCCCAAUGACAUCUUACCACCGGAUGCUAUUACACAGAGUAGCCGCUUACUUUGGAUUAGACCACAAUGUUGAUCAG` is reported as 1.17 ratio.
For `CCUGGUGGGCAUGUGGGACGUUUCUGCAUUUGGACUGAAAGUGCUUUCCGGAAGUCCGAUGAAUUGUACGGCACUUGGCGUAAAGCCGCUUCCCUCAAGAGUAACUACAAUCUUCCCAUG`, the bound/input enrichment was 0.101 ratio.
For `CAAACGUGGGUGUUGGUGUGGACGGGGCGCAGAUCUCCGUGGAUGAACUGCGUCUGGACUCUCCGAUUCAUAAAAUAUUCGAGGGUUUGGGAGUCACAGACCCUCCCCUCUCCUCAGUGC`, the bound/input enrichment was 0.114 ratio.
With `AAUGAGGCUGGUGAUGACCUUGAAGCUGUAGCCAAAUUUCUGGACUCUACAGGCUCAAGAUCCGAUUAUCGUCGCUAUGCAGACACACUCUUCGAUAUCCUGGUGGCUGGCAGUAUGCUU` the bound/input enrichment was 0.261 ratio.
The bound/input enrichment of `UUUUUGAAGGGUGUGAUGCUUGGAAGCAUCUUCUGUGCCUUGAUCACUAUGCUAGGCCACAUCCGGAUUGGAAACAGAAUGCACCACCAUGAGCAUCACCAUCUGCAAGCCCCUAACAAA` is reported as 0.116 ratio.
For `UGUAUGCUUUUCCUUGUGUAAAAUCAUUGUUCUUUUUGACAAGUGGUUUGUUUCAUUUAUUACCGCUUUGAAAUAAAAAAUCGUGAGGGAAAAAAAAUCCAAUGAUUGUACUGUGGUUAG`, the bound/input enrichment was 0.141 ratio.
`UUUGUUUUCAUGUUAAGCACGCGUGCUGGUGGUCUUGGCAUCAAUCUUGCGACUGCUGAUGCCGUAAUUUUGUAUGAUUCUGAUUGGAAUCCCCAAGUAGAUCUUCAGGCUAUGGACCGA` gave a bound/input enrichment of 0.211 ratio.

Study 3
Target: Interferon regulatory factor 5, full length, phosphomimetic (IRF5, Homo sapiens, UniProt Q13568-2, residues 1-514, S451D/S453D/S456D/S462D)
Technique: protein-binding microarray
Form: double-stranded DNA, one strand shown
Medium: in vitro
Concentration: 940 nM top
Notes: 60-bp whole probe
With: salmon DNA 0.4 mg/ml
Relative to: random background probes
Direction: higher = stronger binding
All sequences stand within: GCCTAGCAC … GTCTTGATTCGCTTGACGCTGCTG
For `TCAGCCCTCGGTTTACAACTGTGCTAG`, “fitted relative affinity” read -0.269 z-score.
`GACGCTATCAGTCTCGAGACGTGCTAG` — result for “fitted relative affinity”: 1.18 z-score.
Under “fitted relative affinity”, `CTCTGGGGGGTGGGATGAAGGTGCTAG` is recorded as 4.22 z-score.
For `GACGGTATCGGACCGGGGACGTGCTAG`, “fitted relative affinity” read 2.38 z-score.
For `GACGGACTGGACATTCGGGACGTGCTA`, “fitted relative affinity” read -0.685 z-score.
`TTAGGACTGAGGACTGGGTTAGTGCTA` — result for “fitted relative affinity”: -0.582 z-score.
`GACGGTTTCGGCATCGGGACGTGCTAG`: “fitted relative affinity” 7.54 z-score.
Under “fitted relative affinity”, `GACGCACTGCTTCTCCTGACGTGCTAG` is recorded as 0.0702 z-score.
For `TTAGGACTGGGGTATCCGTTAGTGCTA`, “fitted relative affinity” read -0.13 z-score.
Under “fitted relative affinity”, `GAAGATTTCGGGTTTCGAGACGTGCTA` is recorded as 2.05 z-score.
Under “fitted relative affinity”, `AAAACACTAATTTTCATTTTGTGCTAG` is recorded as 0.478 z-score.
For `CTGTTTTTGCTTTCCTTCATGTGCTAG`, “fitted relative affinity” read 1.88 z-score.
For `TAAGGACTGCTTTTCCTTTAGTGCTAG`, “fitted relative affinity” read -0.127 z-score.
Under “fitted relative affinity”, `TTAGGACTGCTTATCCGTTAGTGCTAG` is recorded as -0.268 z-score.
For `TTAGGACTGCTACTGTTTTAGTGCTAG`, “fitted relative affinity” read -0.365 z-score.
For `TTAGGATTCGGTCTCGGTTAGTGCTAG`, “fitted relative affinity” read 3.74 z-score.
Under “fitted relative affinity”, `TTAGGACTGGCGACTGGGTTAGTGCTA` is recorded as -0.452 z-score.
`CTGACTTTGGAGATGACTCAGTGCTAG` — result for “fitted relative affinity”: -0.437 z-score.
For `TTAGGACTGCTTTTCCTTTTGTGCTAG`, “fitted relative affinity” read -0.24 z-score.
`TTAGGTATCCTTATCCTTTGGTGCTAG` — result for “fitted relative affinity”: 0.267 z-score.
`TTAGGTATCTGGACTGGGTTAGTGCTA` — result for “fitted relative affinity”: 0.39 z-score.
`ATAGAACTGAGTCTCGATTAGTGCTAG` — result for “fitted relative affinity”: 2.54 z-score.
For `TTAGGTTTCCGTATCGGTTAGTGCTAG`, “fitted relative affinity” read 4.63 z-score.
Under “fitted relative affinity”, `CCGTGTTTCTCAAATGTTTTGGTGCTA` is recorded as 0.93 z-score.
`GACGGACTGGGTATCGGGACGTGCTAG` — result for “fitted relative affinity”: 0.747 z-score.

Study 4
Target: Ras GTPase-activating protein-binding protein 1, full length (G3BP1, Homo sapiens, UniProt Q13283)
UniProt Q13283, sequence (whole entry, looked up): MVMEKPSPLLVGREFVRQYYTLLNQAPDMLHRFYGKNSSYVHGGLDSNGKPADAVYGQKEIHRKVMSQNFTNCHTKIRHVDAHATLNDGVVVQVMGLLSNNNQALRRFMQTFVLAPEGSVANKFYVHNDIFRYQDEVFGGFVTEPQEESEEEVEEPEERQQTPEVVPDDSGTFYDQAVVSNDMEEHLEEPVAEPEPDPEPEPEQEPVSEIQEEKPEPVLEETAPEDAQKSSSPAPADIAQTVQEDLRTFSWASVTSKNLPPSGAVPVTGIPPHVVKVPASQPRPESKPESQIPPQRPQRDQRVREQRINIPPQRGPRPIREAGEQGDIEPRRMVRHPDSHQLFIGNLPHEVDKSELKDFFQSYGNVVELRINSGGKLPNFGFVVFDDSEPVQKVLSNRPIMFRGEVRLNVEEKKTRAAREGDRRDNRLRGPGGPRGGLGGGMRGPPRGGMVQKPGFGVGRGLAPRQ
Technique: RNA Bind-n-Seq
Form: RNA
Medium: in vitro
Concentration: 200 nM
Notes: whole 134-nt RNA, ends assumed
With: 150 mM KCl
Relative to: input library
Direction: higher = stronger binding
All sequences stand within: GGGAGUUCUACAGUCCGACGAUC … UGGAAUUCUCGGGUGUCAAGG
`AGUCCUGUGCUACACAUCGUAUGUACCGAAUCGGAAAAAAAGGAAAAAAAGGUUUGGAAAGUAUUAUGUUACGCCGUUCGGAUCUGCACU` has a log2 enrichment of -1.89.
For `AGUCCUGUGCUACACAUCGUAUGUACCGAAUCGGGGUUUUGGGUUUUGGGGUUUUGGAAAGUAUUAUGUUACGCCGUUCGGAUCUGCACU`, the log2 enrichment was -0.471.
`CCUGUGCUACACAUCGUAUGUACCGAAUCGGGUUUUUUGGGGUUUUUUGGGUUUUUUGGGGAAAGUAUUAUGUUACGCCGUUCGGAUCUG` gave a log2 enrichment of -0.574.
For `ACCAUGCAGGUGGGCAUCUUUGGGAAGUGGGGCAAGGGGGGGAUAGGGAGGGGGGUAACACUUUGGGAACAGGUGGUCCCAGGUCGUCUC`, the log2 enrichment was 1.45.
`GUCCUGUGCUACACAUCGUAUGUACCGAAUCGGGAAAAAAAGGGAAAAAAAGGGAGGGAAAGUAUUAUGUUACGCCGUUCGGAUCUGCAC` has a log2 enrichment of 0.0478.
The log2 enrichment of `AGUCCUGUGCUACACAUCGUAUGUACCGAAUCGGGAGGGUUUUUGGGAAAAAAAGGGAAAGUAUUAUGUUACGCCGUUCGGAUCUGCACU` is reported as -0.348.
For `UCCUCAAGUCCUGUGCUACACAUCGUAUGUACCGAAUCGGUGGUUUGGUGGAAAGUAUUAUGUUACGCCGUUCGGAUCUGCACUUCCAGC`, the log2 enrichment was -0.589.
With `CACAGACAACACGCAAAAACACAGACACAGAGGGAAGGGGUUGGGAUGGGGACAGGGUGCACAGCAGGGCGGGGUAGGACCCCAGCCCCU` the log2 enrichment was 1.6.
With `CCUCAAGUCCUGUGCUACACAUCGUAUGUACCGAAUCGGGAGGGGAGGAGGGGAAAGUAUUAUGUUACGCCGUUCGGAUCUGCACUUCCA` the log2 enrichment was 1.24.
With `CCUCAAGUCCUGUGCUACACAUCGUAUGUACCGAAUCGGGGCGGGGCGGGCGGAAAGUAUUAUGUUACGCCGUUCGGAUCUGCACUUCCA` the log2 enrichment was 0.488.
For `UUUCUAGGGAAGGUGCUUCUGGAAAAGUUGCUGAGGUCUUGUCCUAAGGUGAAUUCAGUAUAUGUUUUGGUGAGGCAGAAAGCUGGACAG`, the log2 enrichment was -1.77.
`CAAGUCCUGUGCUACACAUCGUAUGUACCGAAUCGGGAGGGUUUGGGUUUUUGGGAAAGUAUUAUGUUACGCCGUUCGGAUCUGCACUUC` has a log2 enrichment of 0.349.
`AGUCCUGUGCUACACAUCGUAUGUACCGAAUCGGUUUUUGGGGUUUUUGGGUUUUUGGAAAGUAUUAUGUUACGCCGUUCGGAUCUGCAC` gave a log2 enrichment of -0.865.
`CACAGACAACACGCACCCACGCAGACACAGAGGGAAGGGGUUGGGAUGGGGACAGGGUGCACAGCAGGGCGGGGUAGGACCCCAGCCCCU` has a log2 enrichment of 1.99.

A few entries again (study 4):
With `CCUCAAGUCCUGUGCUACACAUCGUAUGUACCGAAUCGGGAGGGGAGGAGGGGAAAGUAUUAUGUUACGCCGUUCGGAUCUGCACUUCCA` the log2 enrichment was 1.24.
`AGUCCUGUGCUACACAUCGUAUGUACCGAAUCGGUUUUUGGGGUUUUUGGGUUUUUGGAAAGUAUUAUGUUACGCCGUUCGGAUCUGCAC` gave a log2 enrichment of -0.865.
`AGUCCUGUGCUACACAUCGUAUGUACCGAAUCGGAAAAAAAGGAAAAAAAGGUUUGGAAAGUAUUAUGUUACGCCGUUCGGAUCUGCACU` has a log2 enrichment of -1.89.
For `UUUCUAGGGAAGGUGCUUCUGGAAAAGUUGCUGAGGUCUUGUCCUAAGGUGAAUUCAGUAUAUGUUUUGGUGAGGCAGAAAGCUGGACAG`, the log2 enrichment was -1.77.
For `UCCUCAAGUCCUGUGCUACACAUCGUAUGUACCGAAUCGGUGGUUUGGUGGAAAGUAUUAUGUUACGCCGUUCGGAUCUGCACUUCCAGC`, the log2 enrichment was -0.589.
With `CACAGACAACACGCAAAAACACAGACACAGAGGGAAGGGGUUGGGAUGGGGACAGGGUGCACAGCAGGGCGGGGUAGGACCCCAGCCCCU` the log2 enrichment was 1.6.
`CACAGACAACACGCACCCACGCAGACACAGAGGGAAGGGGUUGGGAUGGGGACAGGGUGCACAGCAGGGCGGGGUAGGACCCCAGCCCCU` has a log2 enrichment of 1.99.
